Experimental data pooled from the literature.
Each numbered part is a random draw from the data of one study; scales do not carry over between parts. Changes are numbered by the printed parent chain.

Block 1
Target: Histone acetyltransferase KAT6A, winged helix 1, GST fusion (KAT6A, Homo sapiens, UniProt Q92794, residues 1-85)
Technique: protein binding microarray
Molecule type: double-stranded DNA, one strand shown
Sample: in vitro
Concentration: not given
Setting: 8-mer, flanks averaged, mean of 2 arrays, mostly near background
Relative to: not given
Reading: higher = stronger binding
Residues (chain): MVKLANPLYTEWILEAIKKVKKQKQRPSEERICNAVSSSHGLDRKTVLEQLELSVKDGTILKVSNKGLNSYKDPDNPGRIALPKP
`TATTAAAA` has an E-score of 0.00466.
`ACAGTAAG` gave an E-score of -0.0178.
The E-score of `ACCCTCAA` is reported as -0.244.
The E-score of `ATGGATAA` is reported as -0.209.
With `GTACTGAC` the E-score was 0.12.

Block 2
Target: RNA binding protein fox-1 homolog 2, RRM domain, GST-SBP tag (RBFOX2, Homo sapiens, UniProt O43251-10, residues 100-194)
Technique: RNA Bind-n-Seq
Molecule type: RNA
Sample: in vitro
Concentration: 365 nM
Setting: natural RNA segment, single round, ends assumed
Relative to: no-protein control
Reading: higher = stronger binding
Residues (chain): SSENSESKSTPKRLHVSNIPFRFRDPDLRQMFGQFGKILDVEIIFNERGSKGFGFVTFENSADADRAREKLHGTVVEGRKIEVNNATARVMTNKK
For `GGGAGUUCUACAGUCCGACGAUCAAAGGCAGUCUCUGUGUCUGGAGCUUCAAAGAGACAGGCAGACCUGCACUAAUUCCCUUCUUCCUCUAGCAGACUGCCUUGGGAAGGACCUUCAGUCCAGGACAGACCCUUGGAAUUCUCGGGUGCCAA`, “RBNS enrichment (R)” read 0.181.
`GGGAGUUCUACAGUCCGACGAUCCUUUGUGGGACAGACAAACUUUUUAAAAAUUACUUUGUUGACUGACAAACCAGCUGCCAGCUUCUGGCUGCAAAACUGCCUGGUGAAAUUGACUUGCUUGGUUUCAUUCAUGGAAUUCUCGGGUGCCAA`: “RBNS enrichment (R)” 0.357.
`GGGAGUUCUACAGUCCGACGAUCCCACUAAGCUGUGUCUUGUUCAUGCCCCCUGCUCAGUGAAAGGUGAGUCCCGAGACCAGUUGGGUACCUCUCUAUGCGAACCAGAGACAUUUCUGGAUCCAGGCCAGGUGUGGAAUUCUCGGGUGCCAA` — result for “RBNS enrichment (R)”: 1.03.
For `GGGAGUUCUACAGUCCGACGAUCAUUUGGGAUAGAUUACAUAGGAGUAUGGAGUAUGCUGUAAAUAAAAAUACAAGCUAGUGCUUUGUCUUAGUAGUUUUAAGAAAUUAAAGCAAACAAAUUUAAGUUUUCUUUGGAAUUCUCGGGUGCCAA`, “RBNS enrichment (R)” read 0.412.
`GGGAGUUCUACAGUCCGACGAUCAUUCUACAUACUAAAUCUCUCUCCUUUUUUAAUUUUAAUAUUUGUUAUCAUUUAUUUAUUGGUGCUACUGUUUAUCCGUAAUAAUUGUGGGGAAAAGAUAUUAACAUCACUGGAAUUCUCGGGUGCCAA` — result for “RBNS enrichment (R)”: 0.604.

Block 3
Target: CCNA2, cyclin fold, Cln2 fusion (human)
Technique: yeast growth competition, sequencing
Sample: yeast
Setting: strong parent motif
Relative to: not given
Reading: higher = stronger binding
Starting sequence: GMNC docking peptide (human); KNAKRNLSSEFAN
`L7C` — result for “normalised enrichment score”: 0.741.
For `R5A`, “normalised enrichment score” read 0.583.
`R5T` — result for “normalised enrichment score”: 0.328.
For `N2E`, “normalised enrichment score” read 3.81.
Under “normalised enrichment score”, `E10P` is recorded as 0.221.
For `A3I`, “normalised enrichment score” read 4.93.
`S8I`: “normalised enrichment score” 5.63.
Under “normalised enrichment score”, `L7D` is recorded as 0.731.

Further values, each from its own experiment
The fold induction of `PhoQ, residues 284 288 289 292 302 303 SQSLSM` is reported as 2.87 (PhoP, residues 12 14 15 18 19 AWHSL (Escherichia coli, UniProt P23836); Sort-seq, refers to: YFP reporter; E. coli; PhoQ-PhoP variant library, with: 10 µM Mg2+; relative to: high Mg2+ state, higher = stronger signaling).
